Published values pooled from the literature.
Lines come from different studies, so protocols differ.
Method: steady-state kinetics
B1: enzyme (Listeria innocua, UniProt Q927X3); chain MYFQKARLIHAELPLLAPFKTSYGELKSKDFYIIELINEEGIHGYGELEAFPLPDYTEETLSSAILIIKEQLLPLLAQRKIRKPEEIQELFSWIQGNEMAKAAVELAVWDAFAKMEKRSLAKMIGATKESIKVGVSIGLQQNVETLLQLVNQYVDQGYERVKLKIAPNKDIQFVEAVRKSFPKLSLMADANSAYNREDFLLLKELDQYDLEMIEQPFGTKDFVDHAWLQKQLKTRICLDENIRSVKDVEQAHSIGSCRAINLKLARVGGMSSALKIAEYCALNEILVWCGGMLEAGVGRAHNIALAARNEFVFPGDISASNRFFAEDIVTPAFELNQGRLKVPTNEGIGVTLDLKVLKKYTKSTEEILLNKGWS
B2: bglA A17S/S39T/T105V (Acetivibrio thermocellus, UniProt P26208); chain MSKITFPKDFIWGSATSAYQIEGAYNEDGKGESIWDRFTHTPGNIADGHTGDVACDHYHRYEEDIKIMKEIGIKSYRFSISWPRIFPEGTGKLNQKGLDFYKRLVNLLLENGIMPAITLYHWDLPQKLQDKGGWKNRDTTDYFTEYSEVIFKNLGDIVPIWFTHNEPGVVSLLGHFLGIHAPGIKDLRTSLEVSHNLLLSHGKAVKLFREMNIDAQIGIALNLSYHYPASEKAEDIEAAELSFSLAGRWYLDPVLKGRYPENALKLYKKKGIELSFPEDDLKLISQPIDFIAFNNYSSEFIKYDPSSESGFSPANSILEKFEKTDMGWIIYPEGLYDLLMLLDRDYGKPNIVISENGAAFKDEIGSNGKIEDTKRIQYLKDYLTQAHRAIQDGVNLKAYYLWSLLDNFEWAYGYNKRFGIVHVNFDTLERKIKDSGYWYKEVIKNNGF
B3: enzyme (Cyanidioschyzon merolae, UniProt M1V8C6); chain EPPRDTAATSSHEFTHHVTEKAKDWSGSGTWLQSYIEQGPLAAAIPPQYAPSRSLSRWQAWGSYLFKELGLDGTLERDQNRIFRFYLPVFAWSLHVVNRLQRDERRKQHGVIIGLQCPQGGGKTTLTAALQKLFDLEQRRCVSLSIDDFYLTRREQEALARAFPENPLLGSRGNPGTHDISLALQVLNEVVAAPYPGEHAEVAVPRYDKSAFQGLGDRAPPEQWPLVSRPVDVVFLEGWCLGFRPLALHERPATMDPITLRHLMQVDRFLAEDFSRLYPLLDAFIVIALDGPKLSESLRIVYQWRLEAEQQMRAAGRPAMTDEQVYAFVDKFMPAYKAYLGDLYGGPPLTGNLSRELRVGIDETRSPTRLNPHSELVP
B4: enzyme (Klebsiella pneumoniae, UniProt A6TH53); chain MAAKDVKFGNDARVKMLRGVNVLADAVKVTLGPKGRNVVLDKSFGAPTITKDGVSVAREIELEDKFENMGAQMVKEVASKANDAAGDGTTTATVLAQAIVNEGLKAVAAGMNPMDLKRGIDKAVLAAVEELKALSVPCSDSKAIAQVGTISANSDETVGKLIAEAMDKVGKEGVITVEDGTGLEDELDVVEGMQFDRGYLSPYFINKPDTGAVELESPFILLADKKISNIREMLPVLEAVAKAGKPLVIIAEDVEGEALATLVVNTMRGIVKVAAVKAPGFGDRRKAMLQDIATLTGGTVISEEIGMELEKATLEDLGQAKRVVINKDTTTIIDGVGEESAIQGRVAQIRKQIEEATSDYDREKLQERVAKLAGGVAVIKVGAATEVEMKEKKARVDDALHATRAAVEEGVVAGGGVALVRVAAKLAGLTGQNEDQNVGIKVALRAMEAPLRQIVSNAGEEPSVVANNVKAGDGNYGYNAATEEYGNMIDFGILDPTKVTRSALQYAASVAGLMITTECMVTDLPKGDAPDLGAAGGMGGMGGMGGMM
B5: enzyme A477T (Populus trichocarpa, UniProt A0A2K1ZZ60); chain ITRQYTFNITHKNFTRLCHTRSLVTVNGQFPGPRLVAREGDQVLVKVVNHVAENITIHWHGVRQLTSGWADGPAYVTQCPIQTGQAYTYNFTITGQRGTLLWHAHISWLRSSLYGPIIILPKLNESYPFKKPYKEIPILFGEWFNVDPEAVIAQALQTGAGPNVSDAYTINGLPGPLYNCSAKDTYKLKVKPGKTYLLRLINAALNDELFFSIANHTLTVVEADAVYVKPFEADTLLISPGQTTNVLLKTKPHLPNATFYMFAGPYFSGMGSFDNSTTAGVLVYKHPSSNNHLKKLPTLKPTLPPINATGFVANFTKKFRSLANAKFPANVPQTVDRKFFFTVGLGTNPCPKNTTCQGPNNNTKFAASINNVSFVLPSVALLQSYFFGQSNGVFTSDFPQNPTIPFNYTGTPPNNTMVSNGTKAVVLTFNTSVELVMQGTSIVTAESHPLHLHGFNFFVVGQGFGNYDPNKDPSNFNLVDPMERNTAGVPAGGWIAIRFLADNPGVWFMHCHLDVHTSWGLRMAWIVLDGPQPNQKIPPPPSDLPKC
B6: GcL (Parageobacillus, UniProt A0A023DFE8); chain MANVIKARPKLYVMDNGRMRMDKNWMIAMHNPATIHNPNAQTEFVEFPIYTVLIDHPEGKILFDTSCNPNSMGPQGRWAESTQQMFPWTATEECYLHNRLEQLKVRPEDIRYVVASHLHLDHAGCLEMFTNATIIVHEDEFNGALQCYARNQKEGAYIWADIDAWIKNNLQWRTVKRHEDNILLAEGVKVLNFGSGHAWGMLGLHVELPETGGIILASDAIYTAESYGPPIKPPGIIYDSLGYMNTVERIRRIAQETKSQVWFGHDAEQFKKFRKSTEGYYE
B7: bglA S39T (Acetivibrio thermocellus, UniProt P26208); chain MSKITFPKDFIWGSATAAYQIEGAYNEDGKGESIWDRFTHTPGNIADGHTGDVACDHYHRYEEDIKIMKEIGIKSYRFSISWPRIFPEGTGKLNQKGLDFYKRLTNLLLENGIMPAITLYHWDLPQKLQDKGGWKNRDTTDYFTEYSEVIFKNLGDIVPIWFTHNEPGVVSLLGHFLGIHAPGIKDLRTSLEVSHNLLLSHGKAVKLFREMNIDAQIGIALNLSYHYPASEKAEDIEAAELSFSLAGRWYLDPVLKGRYPENALKLYKKKGIELSFPEDDLKLISQPIDFIAFNNYSSEFIKYDPSSESGFSPANSILEKFEKTDMGWIIYPEGLYDLLMLLDRDYGKPNIVISENGAAFKDEIGSNGKIEDTKRIQYLKDYLTQAHRAIQDGVNLKAYYLWSLLDNFEWAYGYNKRFGIVHVNFDTLERKIKDSGYWYKEVIKNNGF
B8: ADSL R303C (Homo sapiens, UniProt P30566); chain MAAGGDHGSPDSYRSPLASRYASPEMCFVFSDRYKFRTWRQLWLWLAEAEQTLGLPITDEQIQEMKSNLENIDFKMAAEEEKRLRHDVMAHVHTFGHCCPKAAGIIHLGATSCYVGDNTDLIILRNALDLLLPKLARVISRLADFAKERASLPTLGFTHFQPAQLTTVGKRCCLWIQDLCMDLQNLKRVRDDLRFRGVKGTTGTQASFLQLFEGDDHKVEQLDKMVTEKAGFKRAFIITGQTYTRKVDIEVLSVLASLGASVHKICTDIRLLANLKEMEEPFEKQQIGSSAMPYKRNPMRSECCCSLARHLMTLVMDPLQTASVQWFERTLDDSANRRICLAEAFLTADTILNTLQNISEGLVVYPKVIERRIRQELPFMATENIIMAMVKAGGSRQDCHEKIRVLSQQAASVVKQEGGDNDLIERIQVDAYFSPIHSQLDHLLDPSSFTGRASQQVQRFLEEEVYPLLKPYESVMKVKAELCL
UniProt Q5JHM5, sequence (whole entry, looked up): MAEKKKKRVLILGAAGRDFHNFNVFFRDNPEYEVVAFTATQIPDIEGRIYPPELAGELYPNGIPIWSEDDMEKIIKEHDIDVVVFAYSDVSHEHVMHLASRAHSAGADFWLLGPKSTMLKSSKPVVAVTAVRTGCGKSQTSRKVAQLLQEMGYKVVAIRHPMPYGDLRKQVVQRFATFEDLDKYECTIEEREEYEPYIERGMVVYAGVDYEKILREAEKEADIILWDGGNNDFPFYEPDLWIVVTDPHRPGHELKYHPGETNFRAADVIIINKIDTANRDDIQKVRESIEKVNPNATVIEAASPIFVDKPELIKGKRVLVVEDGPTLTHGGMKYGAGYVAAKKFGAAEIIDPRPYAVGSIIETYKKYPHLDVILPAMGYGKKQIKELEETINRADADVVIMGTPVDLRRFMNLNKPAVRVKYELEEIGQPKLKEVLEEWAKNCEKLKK
UniProt Q9ZPI1, sequence (whole entry, looked up): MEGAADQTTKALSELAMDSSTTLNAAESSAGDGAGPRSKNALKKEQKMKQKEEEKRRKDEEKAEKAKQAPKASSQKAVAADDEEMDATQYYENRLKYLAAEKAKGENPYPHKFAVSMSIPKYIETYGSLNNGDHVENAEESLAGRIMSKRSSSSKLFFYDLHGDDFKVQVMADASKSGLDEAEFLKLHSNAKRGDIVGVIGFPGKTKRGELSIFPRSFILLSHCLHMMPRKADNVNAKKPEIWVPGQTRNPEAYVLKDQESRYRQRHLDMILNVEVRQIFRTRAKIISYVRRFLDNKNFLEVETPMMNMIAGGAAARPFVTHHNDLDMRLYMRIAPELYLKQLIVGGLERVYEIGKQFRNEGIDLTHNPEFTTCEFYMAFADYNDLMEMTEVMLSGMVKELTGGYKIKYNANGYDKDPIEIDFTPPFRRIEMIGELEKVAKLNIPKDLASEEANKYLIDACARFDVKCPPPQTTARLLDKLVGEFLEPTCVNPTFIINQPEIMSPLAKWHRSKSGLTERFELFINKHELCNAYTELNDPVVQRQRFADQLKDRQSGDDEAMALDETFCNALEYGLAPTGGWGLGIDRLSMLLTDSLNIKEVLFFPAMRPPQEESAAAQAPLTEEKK
UniProt Q9KGU7, sequence (whole entry, looked up): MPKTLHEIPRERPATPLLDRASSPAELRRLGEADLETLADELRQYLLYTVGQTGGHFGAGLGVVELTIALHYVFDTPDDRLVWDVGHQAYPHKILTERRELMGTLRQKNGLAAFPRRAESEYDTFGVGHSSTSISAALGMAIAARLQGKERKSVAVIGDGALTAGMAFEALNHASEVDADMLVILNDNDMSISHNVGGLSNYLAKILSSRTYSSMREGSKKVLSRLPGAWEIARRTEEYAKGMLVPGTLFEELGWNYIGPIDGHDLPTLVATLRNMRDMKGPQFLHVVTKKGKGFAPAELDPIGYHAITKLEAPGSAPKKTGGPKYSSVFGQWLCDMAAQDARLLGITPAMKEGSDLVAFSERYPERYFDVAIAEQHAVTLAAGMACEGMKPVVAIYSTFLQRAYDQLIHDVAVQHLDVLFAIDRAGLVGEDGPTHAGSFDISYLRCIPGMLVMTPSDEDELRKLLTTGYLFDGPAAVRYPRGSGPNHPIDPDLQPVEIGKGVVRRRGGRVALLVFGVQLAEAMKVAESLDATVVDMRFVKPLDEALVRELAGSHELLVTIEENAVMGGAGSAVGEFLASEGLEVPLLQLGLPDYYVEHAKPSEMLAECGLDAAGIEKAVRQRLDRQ
UniProt Q944I4, sequence (whole entry, looked up): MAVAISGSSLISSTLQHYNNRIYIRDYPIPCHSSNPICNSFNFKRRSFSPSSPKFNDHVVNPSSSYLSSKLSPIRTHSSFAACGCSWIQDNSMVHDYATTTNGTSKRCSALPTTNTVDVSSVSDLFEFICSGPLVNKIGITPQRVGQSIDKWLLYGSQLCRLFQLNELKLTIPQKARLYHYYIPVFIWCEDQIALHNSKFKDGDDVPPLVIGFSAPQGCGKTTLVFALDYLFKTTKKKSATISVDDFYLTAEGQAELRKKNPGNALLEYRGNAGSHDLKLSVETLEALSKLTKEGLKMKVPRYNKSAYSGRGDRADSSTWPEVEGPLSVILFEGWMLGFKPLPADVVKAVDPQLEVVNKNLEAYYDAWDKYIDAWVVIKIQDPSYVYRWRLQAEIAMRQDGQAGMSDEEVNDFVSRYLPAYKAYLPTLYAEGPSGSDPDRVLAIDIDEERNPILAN

dxs (Pseudomonas aeruginosa, UniProt Q9KGU7) — Km (O=C[C@H](O)COP(=O)(O)O; pH 8, 25 °C, apparent): 5.8 µM
B1 (enzyme) — Km (O=C(O)CCC(=O)C1=CC=C[C@@H](O)[C@@H]1C(=O)O; pH 8, 25 °C): 170 µM
B2 (bglA A17S/S39T/T105V) — Km (O=[N+]([O-])c1ccc(O[C@@H]2O[C@H](CO)[C@@H](O)[C@H](O)[C@H]2O)cc1; pH 5.5, 60 °C): 4610 µM
ALS1 S627I/W548L (Oryza sativa) — Km (CC(=O)C(=O)O; pH 7.5, 37 °C, added: FAD, MgCl2, TPP): 96000 µM
rCR L137V (Lodderomyces parapsilosis) — Km (CC(=O)c1ccc(Cl)cc1; pH 7, 30 °C, added: NADH 0.5 mM): 360 µM
B3 (enzyme) — Km (Nc1ncnc2c1ncn2[C@@H]1O[C@H](COP(=O)(O)OP(=O)(O)OP(=O)(O)O)[C@@H](O)[C@H]1O; pH 7.8, 30 °C): 46 µM
B4 (enzyme) — Km (Nc1ncnc2c1ncn2[C@@H]1O[C@H](COP(=O)(O)OP(=O)(O)OP(=O)(O)O)[C@@H](O)[C@H]1O; pH 7.4, 24 °C, apparent): 25.6 µM
Cj1438c (Campylobacter jejuni, UniProt Q0P8H6) — Km (N[C@@H](CO)COP(=O)(O)O; pH 8, 25 °C, apparent): 57 µM
enzyme (Arabidopsis thaliana, UniProt Q9ZPI1) — Km (Nc1ncnc2c1ncn2[C@@H]1O[C@H](COP(=O)(O)OP(=O)(O)OP(=O)(O)O)[C@@H](O)[C@H]1O; pH 7.8, 37 °C): 76.8 µM
PDE (Schistosoma mansoni, UniProt C4QCZ2) — Km (Nc1ncnc2c1ncn2[C@@H]1O[C@H](COP(=O)(O)OP(=O)(O)O)[C@@H](O)[C@H]1O; pH 9): 246 µM
enzyme (Thermococcus kodakarensis, UniProt Q5JHM5) — Km (N=C(N)NCCC[C@H](N)C(=O)O; pH 7.5, 80 °C): 2300 µM
enzyme (Aptenodytes forsteri, UniProt A0A087QWN2) — Km (C[C@]12CCC(=O)C=C1CC[C@@H]1[C@@H]2CC[C@]2(C)C(=O)CC[C@@H]12; pH 7.4): 0.2 µM
nfsB K14Q (Escherichia coli) — Km (NC(=O)N/N=C/c1ccc([N+](=O)[O-])o1; pH 7, 37 °C): 13 µM
enzyme (Arabidopsis thaliana, UniProt Q944I4) — Km (Nc1ncnc2c1ncn2[C@@H]1O[C@H](COP(=O)(O)OP(=O)(O)OP(=O)(O)O)[C@@H](O)[C@H]1O; pH 7.8, 30 °C): 470 µM
enzyme (Manihot esculenta, UniProt Q41172) — Km (CC(C)(C#N)O[C@@H]1O[C@H](CO)[C@@H](O)[C@H](O)[C@H]1O; pH 6, 30 °C, not purified): 6630 µM
fcl (Campylobacter jejuni, UniProt Q0P8I6) — Km (Nc1nc2c(ncn2[C@@H]2O[C@H](COP(=O)(O)OP(=O)(O)O[C@H]3O[C@@H](CCO)C(=O)[C@@H](O)[C@@H]3O)[C@@H](O)[C@H]2O)c(=O)[nH]1; pH 7.5, 25 °C, apparent): 93 µM
ALS1 Q169N/V170Q (Oryza sativa) — Km (CC(=O)C(=O)O; pH 7.5, 37 °C, added: FAD, MgCl2, TPP): 20000 µM
B5 (enzyme A477T) — Km (COc1cc(/C=C/CO)cc(OC)c1O; 27 °C): 135 µM
B6 (GcL) — Km (CCCC(=O)N[C@H]1CCOC1=O; pH 8.3, added: CoCl2 0.2 mM): 581 µM
enzyme (UniProt I4BZH5) — Km (N=C(N)NCCC[C@H](N)C(=O)O; pH 8, 30 °C): 322 µM
B7 (bglA S39T) — Km (O=[N+]([O-])c1ccc(O[C@@H]2O[C@H](CO)[C@@H](O)[C@H](O)[C@H]2O)cc1; pH 5.5, 60 °C): 8020 µM
pdc E473D (Zymomonas mobilis) — Km (CC(=O)C(=O)O; pH 6, 30 °C): 150 µM
B8 (ADSL R303C) — Km (Nc1c(C(=O)N[C@@H](CC(=O)O)C(=O)O)ncn1[C@@H]1O[C@H](COP(=O)(O)O)[C@@H](O)[C@H]1O; pH 7.4, 25 °C): 7.8 µM
